Measurements of several laboratories.
Compare with care: the assays were run in different laboratories.

| Structure (SMILES) | tested on | test | test system | conditions | measurement | value |
| --- | --- | --- | --- | --- | --- | --- |
| CN1CCC(N[C@H]2CCc3[nH]c4c(C(N)=O)ccc(-c5ccccc5Cl)c4c3C2)CC1 | MINO | cell growth or viability | – | – | IC50 | 3.1 µM |
| N#CCNC(=O)c1ccc(C2CCCCC2)cc1 | – | liver microsome stability | human liver microsomes | 1 µM, without NADPH | hepatic clearance | 3.9 mL/min/kg |
| C[C@@H]1CC[C@@H]([C@@](O)(COCc2ccccc2)Cn2cnc3ccccc32)[C@H](OCc2ccccc2)C1 | A2780 | cell growth or viability, MTT | – | 72 h | IC50 | 5.34 µM |
| Cc1cc(C)cc(COc2cc3c(cc2OCc2cc(C)cc(C)c2)[C@H]2C[C@@](O)(Cc4cn(Cc5ccc(F)cc5)nn4)C[C@@H](C)N2CC3)c1 | GES1 | cell growth or viability, MTT | – | 48 h | IC50 | 1.92 µM |
| CC(C)c1ccc(N(C)c2ccc3c(c2)OCC[C@H]3CNc2cnccc2C(=O)O)cc1 | SW1990 | cell growth or viability, ATP luminescence | – | 7 days | IC50 | ≥ 10 µM |
| CN1CCN(c2ccc(-c3cncc(Cl)c3N3CCC4(CCNC4=O)CC3)cc2)CC1 | LS174T | WNT reporter gene, inhibitor, TCF/LEF luciferase | – | – | IC50 | 0.056 µM |
| O=[P@]1(c2ccccc2)CC[C@@H](O)CC1 | HaCaT | cell growth or viability, MTT | – | 72 h | IC50 | > 100 µM |
| COc1ccnc(-c2cc(OC)ccn2)c1.Cc1ccc2c(Cl)cc(Cl)c([O-])c2n1.Cc1ccc2c(Cl)cc(Cl)c([O-])c2n1.[Co+2] | BEL-7404 | cell growth or viability, MTT | – | 48 h | IC50 | 5.34 µM |
| O=C(Nc1ccc([C@H]2[C@@H](F)[C@@H](F)C[C@@H](F)[C@H]2F)cc1)C1(N2CCOCC2)CC1 | – | liver microsome stability | mouse liver microsomes | 1 µM | hepatic clearance | 71 mL/min/kg |
| CCCCCC(=O)Oc1c(C)c(OC)c2c(/C=C/c3ccccc3)c(CCCC)c(=O)oc2c1C | HT-29 | cell growth or viability, SRB | – | 72 h | IC50 | > 50 µM |
| CCN(C(=O)c1cc(F)ccc1Oc1nncnc1N1CCC2(C1)CN(C(CCCN(C)CCOC)C(C)C)C2)C(C)C (centres unmarked) | OCI-AML-3 (NPM1c) | cell growth, live-cell imaging, spheroid-like | – | concentration not given, 8 days | IC50 | > 1 µM |
| CNS(=O)(=O)Nc1nccc(Cc2c(C)c3ccc(Oc4ncccc4F)cc3oc2=O)c1F | SW1990 | cell viability | – | 7 days | IC50 | 0.00791 µM |
| Cc1ccnc(-c2cc(C)ccn2)c1.[Co+2].[O-]c1c(I)cc(I)c2cccnc12.[O-]c1c(I)cc(I)c2cccnc12 | BEL-7404 | cell growth or viability, MTT | – | 48 h | IC50 | 35.7 µM |
| CCOc1cncc(-c2ccc(NC(=O)C3(c4ccnc(NS(=O)(=O)C5CC5)n4)CCOCC3)nc2)n1 | DoTc2-4510 | cell growth or viability, ATP luminescence | – | 72 h | IC50 | 10 µM |
| C/C=C(/C)C(=O)OC[C@H]1[C@@H](Cc2ccc(C(C)(C)C)cc2)CO[C@@H]1c1ccc(F)cc1 | rat VSMC | cell growth or viability, resazurin | – | 48 h | IC50 | 4.9 µM |
| CO[C@@H](C[C@H]1C(C)=CC[C@@H]2[C@]3(C)C[C@H](O[C@@H]4O[C@@H](C)[C@H](OC(=O)c5cccc(O)c5)[C@@H](O)[C@H]4O)[C@@H](O)C(C)(C)[C@H]3CC[C@]21C)[C@H](N)C(=O)O | 3T3 fibroblasts | cell viability, CCK-8 | – | 72 h | IC50 | > 10 µM |
| CC#CC(=O)N1CCC[C@H]1c1nc(-c2ccc(C(=O)Nc3ccccn3)cc2)c2c(N)nccn12 | TMD8 ABBV-105-resistant | cell viability, CellTiter-Glo | – | 4 days, 48 h drug withdrawal | IC50 | > 10 µM |

Some of these lines once more:
| Structure (SMILES) | tested on | test | test system | conditions | measurement | value |
| --- | --- | --- | --- | --- | --- | --- |
| COc1ccnc(-c2cc(OC)ccn2)c1.Cc1ccc2c(Cl)cc(Cl)c([O-])c2n1.Cc1ccc2c(Cl)cc(Cl)c([O-])c2n1.[Co+2] | BEL-7404 | cell growth or viability, MTT | – | 48 h | IC50 | 5.34 µM |
| CO[C@@H](C[C@H]1C(C)=CC[C@@H]2[C@]3(C)C[C@H](O[C@@H]4O[C@@H](C)[C@H](OC(=O)c5cccc(O)c5)[C@@H](O)[C@H]4O)[C@@H](O)C(C)(C)[C@H]3CC[C@]21C)[C@H](N)C(=O)O | 3T3 fibroblasts | cell viability, CCK-8 | – | 72 h | IC50 | > 10 µM |
| CCCCCC(=O)Oc1c(C)c(OC)c2c(/C=C/c3ccccc3)c(CCCC)c(=O)oc2c1C | HT-29 | cell growth or viability, SRB | – | 72 h | IC50 | > 50 µM |
